Experimental data collected from several papers.
Parts stem from different laboratories: compare values within a part only. Substitutions count along the parent as printed.

Series 1 — technique: RNA Bind-n-Seq; form: RNA; sample: in vitro; concentration: 365 nM; relative to: no-protein control; direction: higher = stronger binding; quantity: RBNS enrichment (R)
Target: RNA binding protein fox-1 homolog 2, RRM domain, GST-SBP tag (RBFOX2, Homo sapiens, UniProt O43251-10, residues 100-194)
Notes: natural RNA segment, single round, ends assumed
Construct (chain): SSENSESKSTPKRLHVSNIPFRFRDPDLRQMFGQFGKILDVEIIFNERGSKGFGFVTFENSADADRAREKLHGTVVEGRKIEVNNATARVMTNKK
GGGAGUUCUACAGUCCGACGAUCUUAAGUGAGGCCCAUUCUUGUUUUUACAUCGGUCCUUUGUGGUUUUUCUGGGCCAGCAGAGAUUCUGCACCCCAACUCCCAGGAGAAAAUGUAAUACCUGAGCAAGCACAUGGAAUUCUCGGGUGCCAA: 0.496
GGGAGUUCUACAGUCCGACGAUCAACACCACCUAGGCGCACGCGAGCAGAAGCCCUCUCUGUAUUACCGCUCCCUACGCAACAUACUUGAAUUCUUGAGUUCCCUUUGGGGUGAGAAAGGAUUUGAAACCAUAUGGAAUUCUCGGGUGCCAA: 1.3
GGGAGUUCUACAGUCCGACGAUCGCAGCGAAGCCUCGGGGCCCAAGCCCCUCCCCAGCCCCCUCUCCCGGACAGACGCCUUGCCCAGGGUGUGUUUGCUGAGUGUCUUGACUACCGUGACACCACGCAUGGCCUGGAAUUCUCGGGUGCCAA: 0.816
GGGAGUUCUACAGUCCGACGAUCCUAGUCCCUCUCCUGCCACCUCUCCAAGACUUCCGUGGGACACCCACUUCCCUCUGUCCUAGUUCUCUUUGUCCAAUCAGAUGGCAAGGGCAGUGCGUGGAAAGGCCGGGUGGAAUUCUCGGGUGCCAA: 0.298
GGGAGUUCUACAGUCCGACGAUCGUGCUUGCUCUGACUCCUUGUUGCAGGGCAUAAAUGUGCCCCCCCCUCCACGCGCUGAUCGAUACUCUGCCUGUGUCCACUCAACUCAGAUUACAAACAGCUCUCUCUGCUGGAAUUCUCGGGUGCCAA: 0.736
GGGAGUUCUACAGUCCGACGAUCUAUCCAGUGCUUGCCCUCGGAGUGUCUUUAAAUGCACCAAGUGUACAAUAAAAACAUGGAAGUCAAUCCUAGGAGCCUCUUGUUUGUGUCUCAUGGACACAGUCGGCACCUGGAAUUCUCGGGUGCCAA: 0.294
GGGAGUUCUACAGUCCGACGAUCAGUCAAUAUAUAGUGUUGAAGUGGUAUUUCAGGCUAGGAAUUAUUCCCUUCUCUUGGAAUGUGAAGAUCUGUCGAUUCAUCCUGUCAUUAAUCCUGACAUACAGAACAAAUGGAAUUCUCGGGUGCCAA: 0.247
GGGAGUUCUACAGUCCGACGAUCCAUGAAGGUGGUUGUGAUUAAGAAGAUGGUUUUGUUAUUAAAUAGCAUUAAACUGGAAUUGACAAGAGUGUUGAGCAUCCCUGUCUAACCUGCUCUUUCUCUUUGGUGCCUGGAAUUCUCGGGUGCCAA: 0.352
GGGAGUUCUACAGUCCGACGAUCGAGCUACUCAUGACUGAAGGGAAACUGCAGCUGGGAAGAGGAGCCUGUUUUUGUGAGAGACUUUUGCCUUCGUAAUGUUAACCGUUUCAGGACCACGUUUAUAGCUUCAGUGGAAUUCUCGGGUGCCAA: 0.559
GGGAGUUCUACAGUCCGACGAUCGGGCUUCUUUGCUUUUCAAAUGUCCUAGCUCUGUAGUUCGUGCUGUCAUUGGUUUGAUUGUCUCACUGUCCUUCAUUCAGGGCUCUGAGUUUCCUUUGGGCUGCCUUUCUUGGAAUUCUCGGGUGCCAA: 0.296
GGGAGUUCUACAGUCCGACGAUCAUGAAGCAAAGUUCCCUCUCAGCAAACACUGAGAGGCCAUGGAGAAGGACUUCUAGAAUGAAUGAAAGGGGUGGAUGGAAAGGUUUGAUUUCCUAUCUAGAGAUGGAAGAUGGAAUUCUCGGGUGCCAA: 1.23
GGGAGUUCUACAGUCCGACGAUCGAUGGCCUCAUCUCCUGACUGUUUCAUGAACAACUCAUUCCUAGGUGUUAUUUGCAUGUGUGGGUUUCUCACAAGGCUCCCUCCCUUCCUCAGAAGGUUCAUCACGGAAUUGGAAUUCUCGGGUGCCAA: 20

Series 2 — target: BATF2, bZIP domain (human); technique: DHFR protein complementation; sample: yeast; relative to: wild-type JUN-FOS pair; direction: higher = stronger binding; quantity: binding fitness
Notes: single substitutions, most at no-binding floor
Starting sequence: JUN, bZIP domain (human); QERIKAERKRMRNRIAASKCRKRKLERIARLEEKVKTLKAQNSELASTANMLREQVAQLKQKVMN; partner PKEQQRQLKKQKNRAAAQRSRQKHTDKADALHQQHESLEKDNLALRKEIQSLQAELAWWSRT
A40W: -0.722 natural log
A57L: -0.534 natural log
A49V: -0.352 natural log
E54S: -0.524 natural log
A46S: -0.375 natural log
K39D: -0.942 natural log
V56E: -1.53 natural log
V56R: -1.25 natural log
L45Y: -1.08 natural log
E32M: -0.69 natural log
A57S: -0.425 natural log
Q55N: -0.767 natural log
M51K: -0.176 natural log
T37R: -0.219 natural log
N42H: -0.617 natural log
A49E: -1.13 natural log
L45C: -1.52 natural log
E33I: -0.63 natural log

Series 3 — technique: protein binding microarray; form: double-stranded DNA, one strand shown; sample: in vitro; concentration: not given; relative to: not given; direction: higher = stronger binding; quantity: E-score
Target: Histone acetyltransferase KAT6A, both winged helices, GST fusion (KAT6A, Homo sapiens, UniProt Q92794, residues 1-181)
Notes: 8-mer, flanks averaged, mean of 2 arrays, mostly near background
Construct (chain): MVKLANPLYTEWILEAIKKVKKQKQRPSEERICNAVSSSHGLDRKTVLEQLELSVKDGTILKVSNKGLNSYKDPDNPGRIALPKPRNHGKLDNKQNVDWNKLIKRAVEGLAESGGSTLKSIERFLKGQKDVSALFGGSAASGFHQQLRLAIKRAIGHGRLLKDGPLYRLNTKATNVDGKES
AAGTGAAA: -0.0262
CCACCCCA: -0.219
CGTAATAG: -0.0212
AACCGGTG: 0.178
CACATAGA: -0.117
GTAGAGAA: -0.137
CACATGTC: -0.0569
GGCATAGA: 0.0469
ATTCTCAG: -0.211
GATCTGTA: -0.0869
GTTACCGA: 0.133
ACCAGGCA: -0.311
CGTCGGGA: 0.294
TAAGTCTA: -0.035
GAATTGGC: -0.0586
AACCATGC: 0.048
CGGTACCC: 0.105
CATACATC: -0.103
AAAATCCT: -0.139
CCCTATCA: -0.241
ATGAGGCG: 0.094
ACAGATGG: -0.067
AAACGCTT: 0.0702
AAACCACT: -0.0699
ATTTCTGC: 0.0582

Series 4 — technique: RNA Bind-n-Seq; form: RNA; sample: in vitro; concentration: 1 µM; notes: whole 134-nt RNA, ends assumed; added: 150 mM KCl; relative to: input library; direction: higher = stronger binding; quantity: log2 enrichment
Target: Ras GTPase-activating protein-binding protein 1, C-terminal RGG region (G3BP1, Homo sapiens, UniProt Q13283)
Chain of UniProt Q13283 (whole entry, looked up): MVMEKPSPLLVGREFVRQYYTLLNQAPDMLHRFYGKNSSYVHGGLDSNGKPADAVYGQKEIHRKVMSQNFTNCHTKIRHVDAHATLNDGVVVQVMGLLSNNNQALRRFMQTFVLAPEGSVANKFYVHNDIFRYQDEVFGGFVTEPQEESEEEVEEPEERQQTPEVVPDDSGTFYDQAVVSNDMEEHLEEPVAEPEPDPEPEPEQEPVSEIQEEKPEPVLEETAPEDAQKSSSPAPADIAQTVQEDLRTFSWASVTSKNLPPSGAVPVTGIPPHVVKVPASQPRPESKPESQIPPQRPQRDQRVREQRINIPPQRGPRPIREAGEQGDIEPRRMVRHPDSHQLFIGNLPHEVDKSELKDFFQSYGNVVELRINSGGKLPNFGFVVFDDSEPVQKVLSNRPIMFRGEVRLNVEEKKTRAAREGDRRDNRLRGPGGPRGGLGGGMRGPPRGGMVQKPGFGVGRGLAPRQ
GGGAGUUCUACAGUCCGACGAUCAGUCCUGUGCUACACAUCGUAUGUACCGAAUCGGGGUUUUUUUGGGGAGGGGAGGGGAAAGUAUUAUGUUACGCCGUUCGGAUCUGCACUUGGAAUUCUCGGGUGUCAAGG: 2.46
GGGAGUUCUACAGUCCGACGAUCUCCUCAAGUCCUGUGCUACACAUCGUAUGUACCGAAUCGGUGGUGGUUUGGAAAGUAUUAUGUUACGCCGUUCGGAUCUGCACUUCCAGCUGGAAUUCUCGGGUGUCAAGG: -0.556
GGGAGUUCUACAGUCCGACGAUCCCUCAAGUCCUGUGCUACACAUCGUAUGUACCGAAUCGGAAAGGAAAGGAGGAAAGUAUUAUGUUACGCCGUUCGGAUCUGCACUUCCAGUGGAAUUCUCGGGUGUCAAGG: -0.864
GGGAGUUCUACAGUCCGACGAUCUGGGAGGUGGAUUUUGUUUAUUUUUUUAGCUCAUUUCCAGGGGUGGGAAUUUUUUUUUAAUAUGUGUCACGAAUAAAGUUGUUUUUGAAAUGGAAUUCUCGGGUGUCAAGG: 3.45
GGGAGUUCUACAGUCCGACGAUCUCAAGUCCUGUGCUACACAUCGUAUGUACCGAAUCGGAAAAAGGUUUGGAAAGGAAAGUAUUAUGUUACGCCGUUCGGAUCUGCACUUCCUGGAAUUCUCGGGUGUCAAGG: -1.37
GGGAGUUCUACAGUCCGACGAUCCCUGUGCUACACAUCGUAUGUACCGAAUCGGUUUUUUUGGGUUUUUUUGGUUUUUUUGGGGAAAGUAUUAUGUUACGCCGUUCGGAUCUGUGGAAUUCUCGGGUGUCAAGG: -1.7
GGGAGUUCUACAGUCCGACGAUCAGUCCUGUGCUACACAUCGUAUGUACCGAAUCGGUUUUUUUGGAAAAAGGAAAAAGGAAAGUAUUAUGUUACGCCGUUCGGAUCUGCACUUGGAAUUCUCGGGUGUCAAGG: -2.3
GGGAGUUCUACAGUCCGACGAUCUCAAGUCCUGUGCUACACAUCGUAUGUACCGAAUCGGUUUGGGGUUUGGUUUGGAAAGUAUUAUGUUACGCCGUUCGGAUCUGCACUUCCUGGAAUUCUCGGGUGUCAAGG: -0.873
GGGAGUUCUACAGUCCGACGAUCUCCUCAAGUCCUGUGCUACACAUCGUAUGUACCGAAUCGGGAGGAGGGAGGGAAAGUAUUAUGUUACGCCGUUCGGAUCUGCACUUCCAGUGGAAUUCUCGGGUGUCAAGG: 1.21
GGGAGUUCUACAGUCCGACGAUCUGGGAGGUGGAUUUUGUUUAUUUUUUUAGCUCAUUUCCAGGGGUGGGAAUUUUUUUUUAAUAUGUGUCAUGAAUAAUGUUGUUUUUGAAAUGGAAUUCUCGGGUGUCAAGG: 1.7
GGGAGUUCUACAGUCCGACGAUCCUCAAGUCCUGUGCUACACAUCGUAUGUACCGAAUCGGCGGGGCGGGGCGGGGAAAGUAUUAUGUUACGCCGUUCGGAUCUGCACUUCCAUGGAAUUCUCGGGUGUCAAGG: 0.738
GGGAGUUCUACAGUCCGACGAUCCUGUGCUACACAUCGUAUGUACCGAAUCGGAAAAAAAGGGGAAAAAAAGGGAAAAAAAGGGAAAGUAUUAUGUUACGCCGUUCGGAUCUGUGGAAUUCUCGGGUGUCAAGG: -1.44
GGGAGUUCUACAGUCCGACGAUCUGGGAGGUGGAUUUUGUUUGUUUUUUUAGCUCAUUUCCAGGGGUGGGAAUUUUUUUUUAAUAUGUGUCAUGAAUAAAGUUGUUUUUGAAAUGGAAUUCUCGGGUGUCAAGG: 1.94
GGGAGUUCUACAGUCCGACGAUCGCAGGAAGUAAAAACAAAUGGAAAUGCUUCGGAUAGUGGCAGGGGUGGGGGUUGCUAAGGAAAGGGUGGGAUGGGAGUGAGUAAAGAGUUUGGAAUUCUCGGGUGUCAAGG: 1.55

Series 5 — technique: DHFR PCA, dose-response; sample: yeast; notes: Hill fit, mean, not affinity; added: (+)-ABA, dose series; direction: lower = more sensitive; quantity: ABA EC50
Target: ABI1, truncated, D143A, DHFR fusion (Arabidopsis thaliana, UniProt P49597)
Starting sequence: PYL1, truncated, DHFR fusion (Arabidopsis thaliana, UniProt Q8VZS8); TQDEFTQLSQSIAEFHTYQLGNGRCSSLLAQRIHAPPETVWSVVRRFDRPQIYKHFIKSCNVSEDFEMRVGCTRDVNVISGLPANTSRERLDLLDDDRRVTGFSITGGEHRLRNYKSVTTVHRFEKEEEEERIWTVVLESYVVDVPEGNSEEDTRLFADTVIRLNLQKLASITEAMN
N177V: 1.06 µM
I79C: 4.91 µM
A35L: 323 µM
G21P: 2.7 µM
T160H: 6.93 µM
F15Q: 55.5 µM
L156V: 1.38 µM
G21V: 1.46 µM
E152I: 8.42 µM
R88Q: 1.8 µM
K58R: 1.87 µM
K126R: 2.29 µM
I172Q: 27.9 µM
M176T: 3.59 µM
I57A: 73.5 µM
V136A: 46 µM

Series 6 — technique: universal PBM; form: double-stranded DNA, one strand shown; sample: in vitro; concentration: 600 nM; direction: higher = stronger binding; quantity: E-score
Target: Sal-like protein 4, full length isoform A (SALL4, Homo sapiens, UniProt Q9UJQ4, residues 1-1053)
Chain of UniProt Q9UJQ4 (whole entry, looked up): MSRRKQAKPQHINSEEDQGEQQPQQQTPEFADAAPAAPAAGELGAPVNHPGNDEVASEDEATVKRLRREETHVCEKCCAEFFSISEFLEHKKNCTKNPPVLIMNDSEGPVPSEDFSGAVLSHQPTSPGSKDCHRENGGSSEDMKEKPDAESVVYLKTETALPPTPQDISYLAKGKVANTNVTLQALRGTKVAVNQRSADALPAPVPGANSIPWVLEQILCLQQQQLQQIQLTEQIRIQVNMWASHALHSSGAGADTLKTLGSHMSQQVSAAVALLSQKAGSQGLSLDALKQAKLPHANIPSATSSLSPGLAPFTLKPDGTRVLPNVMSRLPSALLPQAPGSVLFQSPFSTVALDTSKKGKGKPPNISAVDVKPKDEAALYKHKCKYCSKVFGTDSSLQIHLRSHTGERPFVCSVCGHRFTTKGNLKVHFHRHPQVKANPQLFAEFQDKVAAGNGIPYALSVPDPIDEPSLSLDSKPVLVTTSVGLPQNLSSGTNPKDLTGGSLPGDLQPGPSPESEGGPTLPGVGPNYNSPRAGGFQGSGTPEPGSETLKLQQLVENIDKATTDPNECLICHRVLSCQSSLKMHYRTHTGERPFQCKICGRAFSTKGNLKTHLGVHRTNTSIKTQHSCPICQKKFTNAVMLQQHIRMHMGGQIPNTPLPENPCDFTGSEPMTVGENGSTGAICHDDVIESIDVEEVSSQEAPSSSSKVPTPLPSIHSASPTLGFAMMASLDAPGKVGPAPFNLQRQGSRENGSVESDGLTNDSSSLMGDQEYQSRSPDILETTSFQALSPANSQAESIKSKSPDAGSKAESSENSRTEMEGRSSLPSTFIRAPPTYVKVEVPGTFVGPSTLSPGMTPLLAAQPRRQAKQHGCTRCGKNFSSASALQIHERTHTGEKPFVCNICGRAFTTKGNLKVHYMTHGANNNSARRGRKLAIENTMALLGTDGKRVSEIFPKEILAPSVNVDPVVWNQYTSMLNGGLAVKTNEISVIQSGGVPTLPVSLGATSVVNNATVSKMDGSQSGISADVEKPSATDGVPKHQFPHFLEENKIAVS
Notes: 8-mer, flanks averaged, mean of replicates
CCTATTTC: 0.105
CCCTTTAC: -0.127
ACCGTCAG: -0.252
CCAATCTC: 0.123
ACCGCAGA: -0.148
AAGTGGAA: 0.18
ACTCAATG: 0.114
AATCCGAT: 0.152
ACTAGTAG: 0.123
GTTGGCCA: -0.215
AGCGTGTA: 0.0182
CTAAAACC: -0.0178
GAAATCGA: 0.0375
ATCGGCAG: -0.118
AGAGTCGC: -0.245
CGGCGCCA: -0.3
CATGTACG: 0.0977
GCACTAAA: 0.159
ACACGGTC: -0.157
GTTCCGGA: -0.222
ACCCGTCC: -0.222

Series 7 — target: CCNB1, cyclin fold, Cln2 fusion (human); technique: yeast growth competition, sequencing; sample: yeast; notes: weak parent motif; relative to: not given; direction: higher = stronger binding; quantity: normalised enrichment score
Starting sequence: CDC6 docking peptide (human); TLKGRRLVFDNQL
N11L: 0.374
Q12W: 1.01
T1Y: 0.146
T1S: 0.292
L13P: 0.745
V8D: 0.452
N11F: 0.608
L2F: -0.248
N11V: 0.536
F9I: 0.443
R5V: 0.418
D10T: -0.366
D10V: 0.024
L13R: 0.758
R6E: -0.811
